Assay results pooled from the literature.
Protocols differ between the studies behind these lines. “And” joins repeats or separate records; there may be more than shown.
Organism: Trypanosoma cruzi

SMILES	test	system	setting	scale	quantity	result
C=C1C(=O)O[C@@H]2C[C@H](C)[C@@H]3C[C@H](O)[C@H](O)[C@@]3(C)C[C@H]12	–	epimastigote	–	baseline: CC50 splenocytes over IC50 epimastigotes	selectivity index	2.6
Cc1cc2[nH]c(C(=O)Nc3ccccc3C)c(CN3CCOCC3)c2s1	parasite growth, imaging	intracellular amastigotes in NIH3T3, Tulahuen	highest tested	–	inhibition	< 50%
O=c1cc[s+]([O-])c2ccc(Cl)cc12 (racemic)	intracellular amastigote growth	U-937, Tulahuen, β-galactosidase transfected	72 h	–	EC50	56.6 µM
COc1ccc(Nc2c(C#N)cnc3ccc(Cl)cc23)cc1	cell viability, resazurin	Y strain trypomastigotes	added: hemin	baseline: without hemin over with hemin	IC50 fold reduction	~8 fold
C=C1C(=O)O[C@@H]2C[C@H](C)[C@@H]3C[C@H](OC(C)=O)[C@H](OC(C)=O)[C@@]3(C)C[C@H]12	–	K-98 clone, mice, Chagas disease model	intraperitoneal, 1 mg/kg/day, days 11 to 15 post-infection	baseline: mock-treated mice	parasitemia AUC decrease	10 fold
Oc1ccccc1/C=C/c1ccc2ccccc2n1	–	Tulahuen, intracellular amastigotes	concentration not given	baseline: compound over benznidazole	activity ratio	2.5
Cc1ccc2nc(-c3ccc(F)c(F)c3)c(CO)n2c1	–	3T3 host cells, Tulahuen beta-galactosidase	6 days	–	EC50	> 5 µM
C[n+]1cc2c3c(ccc2c2ccc4cc5c(cc4c21)OCO5)OCO3	–	–	–	baseline: THP-1 CC50 over T. cruzi EC50	selectivity index	10
Cc1ccc2nc(-c3ccccc3)c(CN3CCOCC3)n2c1	–	3T3 host cells, Tulahuen beta-galactosidase	6 days	–	EC50	13.4 µM
C=C1C(=O)O[C@@H]2C[C@H](C)[C@@H]3C[C@H](OCc4cn(Cc5ccccc5)nn4)[C@H](OCc4cn(Cc5ccccc5)nn4)[C@@]3(C)C[C@H]12	–	epimastigote	–	baseline: CC50 splenocytes over IC50 epimastigotes	selectivity index	17.5
Cc1ccc2nc(-c3ccc(F)c(F)c3)c(CN3CCN(c4ccccc4)CC3)n2c1	–	3T3 host cells, Tulahuen beta-galactosidase	6 days	–	EC50	1.6 µM
CC(C)C[C@@H]1NC(=S)NC1=O	–	intracellular amastigotes	–	baseline: LLC-MK2 CC50 over amastigote IC50	selectivity index	15.1 and > 15
CNC(=O)c1c(C(C)C)oc2nc(N3CCCC3)ccc12	–	3T3 host cells, Tulahuen beta-galactosidase	6 days	–	EC50	> 20 µM
C=C1C(=O)O[C@@H]2C[C@H](C)[C@@H]3C[C@H](OCc4cn(Cc5ccccc5)nn4)[C@H](O)[C@@]3(C)C[C@H]12	–	epimastigote	–	baseline: CC50 splenocytes over IC50 epimastigotes	selectivity index	4.6
Cc1ccc(-c2cn3cc(C)ccc3n2)cc1	–	3T3 host cells, Tulahuen beta-galactosidase	6 days	–	EC50	> 5 µM
O=c1cc[s+]([O-])c2ccccc12 (single isomer, unassigned; (-))	intracellular amastigote growth	U-937, Tulahuen, β-galactosidase transfected	72 h	–	EC50	172 µM

A few entries again:
SMILES	test	system	setting	scale	quantity	result
Cc1cc2[nH]c(C(=O)Nc3ccccc3C)c(CN3CCOCC3)c2s1	parasite growth, imaging	intracellular amastigotes in NIH3T3, Tulahuen	highest tested	–	inhibition	< 50%
C=C1C(=O)O[C@@H]2C[C@H](C)[C@@H]3C[C@H](O)[C@H](O)[C@@]3(C)C[C@H]12	–	epimastigote	–	baseline: CC50 splenocytes over IC50 epimastigotes	selectivity index	2.6
